# Measurements gathered from unrelated publications.
# Lines come from different studies, so protocols differ. Numbers after ± are the reported error.
# CDK5 with p35: Cyclin-dependent kinase 5, with p35 (CDK5, Homo sapiens, UniProt Q00535)
# Sequence of UniProt Q00535 (whole entry, looked up): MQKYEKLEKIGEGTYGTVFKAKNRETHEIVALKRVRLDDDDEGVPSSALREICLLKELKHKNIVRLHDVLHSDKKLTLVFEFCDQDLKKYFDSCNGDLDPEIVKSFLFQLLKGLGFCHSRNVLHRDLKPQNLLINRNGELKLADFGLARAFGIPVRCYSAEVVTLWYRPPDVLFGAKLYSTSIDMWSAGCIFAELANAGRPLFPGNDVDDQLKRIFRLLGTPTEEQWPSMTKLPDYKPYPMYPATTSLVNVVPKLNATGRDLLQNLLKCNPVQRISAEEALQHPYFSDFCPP
# ACE: Angiotensin-converting enzyme (ACE, Oryctolagus cuniculus, UniProt P12822)
# Sequence of UniProt P12822 (whole entry, looked up): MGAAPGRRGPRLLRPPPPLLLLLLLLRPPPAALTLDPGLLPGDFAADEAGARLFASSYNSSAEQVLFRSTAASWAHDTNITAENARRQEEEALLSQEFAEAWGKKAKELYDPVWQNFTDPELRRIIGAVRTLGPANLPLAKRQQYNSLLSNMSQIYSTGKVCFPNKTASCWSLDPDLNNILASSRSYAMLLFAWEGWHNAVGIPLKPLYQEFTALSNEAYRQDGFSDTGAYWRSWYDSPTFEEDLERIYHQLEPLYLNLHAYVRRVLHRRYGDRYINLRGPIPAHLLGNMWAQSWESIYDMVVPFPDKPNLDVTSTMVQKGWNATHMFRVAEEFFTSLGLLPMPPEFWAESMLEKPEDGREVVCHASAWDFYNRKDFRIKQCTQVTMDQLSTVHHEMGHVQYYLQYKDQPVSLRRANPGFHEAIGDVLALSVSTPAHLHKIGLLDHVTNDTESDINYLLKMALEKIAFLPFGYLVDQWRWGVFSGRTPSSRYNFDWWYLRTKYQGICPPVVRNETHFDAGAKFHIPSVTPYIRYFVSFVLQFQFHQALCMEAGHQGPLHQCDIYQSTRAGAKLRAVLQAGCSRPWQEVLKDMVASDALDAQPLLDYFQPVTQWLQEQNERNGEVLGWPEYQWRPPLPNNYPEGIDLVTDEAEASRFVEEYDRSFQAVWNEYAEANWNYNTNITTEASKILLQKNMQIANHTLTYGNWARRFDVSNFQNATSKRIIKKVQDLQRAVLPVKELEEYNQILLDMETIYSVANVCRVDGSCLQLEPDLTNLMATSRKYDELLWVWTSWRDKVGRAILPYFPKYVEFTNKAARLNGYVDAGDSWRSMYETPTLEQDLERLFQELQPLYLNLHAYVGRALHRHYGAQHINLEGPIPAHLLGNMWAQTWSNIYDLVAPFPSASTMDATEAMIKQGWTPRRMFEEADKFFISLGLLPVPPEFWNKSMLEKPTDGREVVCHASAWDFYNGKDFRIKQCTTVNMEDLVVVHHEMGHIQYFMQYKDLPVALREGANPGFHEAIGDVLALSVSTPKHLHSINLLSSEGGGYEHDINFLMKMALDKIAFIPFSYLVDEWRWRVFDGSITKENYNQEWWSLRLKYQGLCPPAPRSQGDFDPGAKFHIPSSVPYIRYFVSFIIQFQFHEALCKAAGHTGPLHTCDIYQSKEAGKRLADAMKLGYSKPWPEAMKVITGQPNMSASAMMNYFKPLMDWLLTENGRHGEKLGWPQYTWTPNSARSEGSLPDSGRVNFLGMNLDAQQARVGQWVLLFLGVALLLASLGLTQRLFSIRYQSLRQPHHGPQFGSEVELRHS
# BCHE: Cholinesterase (BCHE, Equus caballus, UniProt P81908)
# Sequence of UniProt P81908 (whole entry, looked up): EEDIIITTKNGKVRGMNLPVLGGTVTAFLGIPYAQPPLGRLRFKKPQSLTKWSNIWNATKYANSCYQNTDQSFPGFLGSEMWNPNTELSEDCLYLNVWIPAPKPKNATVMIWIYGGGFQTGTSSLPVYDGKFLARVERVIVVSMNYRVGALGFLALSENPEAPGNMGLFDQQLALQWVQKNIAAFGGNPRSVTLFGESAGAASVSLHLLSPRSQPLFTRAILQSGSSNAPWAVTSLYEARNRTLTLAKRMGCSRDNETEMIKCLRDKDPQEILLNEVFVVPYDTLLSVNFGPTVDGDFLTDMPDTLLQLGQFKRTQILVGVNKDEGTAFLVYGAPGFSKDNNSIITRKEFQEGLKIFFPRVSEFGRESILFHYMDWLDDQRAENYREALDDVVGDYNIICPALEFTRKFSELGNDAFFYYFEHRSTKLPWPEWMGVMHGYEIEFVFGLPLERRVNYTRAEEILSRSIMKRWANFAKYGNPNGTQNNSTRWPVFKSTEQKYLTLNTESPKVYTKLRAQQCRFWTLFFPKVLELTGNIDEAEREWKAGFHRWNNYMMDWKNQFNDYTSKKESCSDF
# Sequence of UniProt O95342 (whole entry, looked up): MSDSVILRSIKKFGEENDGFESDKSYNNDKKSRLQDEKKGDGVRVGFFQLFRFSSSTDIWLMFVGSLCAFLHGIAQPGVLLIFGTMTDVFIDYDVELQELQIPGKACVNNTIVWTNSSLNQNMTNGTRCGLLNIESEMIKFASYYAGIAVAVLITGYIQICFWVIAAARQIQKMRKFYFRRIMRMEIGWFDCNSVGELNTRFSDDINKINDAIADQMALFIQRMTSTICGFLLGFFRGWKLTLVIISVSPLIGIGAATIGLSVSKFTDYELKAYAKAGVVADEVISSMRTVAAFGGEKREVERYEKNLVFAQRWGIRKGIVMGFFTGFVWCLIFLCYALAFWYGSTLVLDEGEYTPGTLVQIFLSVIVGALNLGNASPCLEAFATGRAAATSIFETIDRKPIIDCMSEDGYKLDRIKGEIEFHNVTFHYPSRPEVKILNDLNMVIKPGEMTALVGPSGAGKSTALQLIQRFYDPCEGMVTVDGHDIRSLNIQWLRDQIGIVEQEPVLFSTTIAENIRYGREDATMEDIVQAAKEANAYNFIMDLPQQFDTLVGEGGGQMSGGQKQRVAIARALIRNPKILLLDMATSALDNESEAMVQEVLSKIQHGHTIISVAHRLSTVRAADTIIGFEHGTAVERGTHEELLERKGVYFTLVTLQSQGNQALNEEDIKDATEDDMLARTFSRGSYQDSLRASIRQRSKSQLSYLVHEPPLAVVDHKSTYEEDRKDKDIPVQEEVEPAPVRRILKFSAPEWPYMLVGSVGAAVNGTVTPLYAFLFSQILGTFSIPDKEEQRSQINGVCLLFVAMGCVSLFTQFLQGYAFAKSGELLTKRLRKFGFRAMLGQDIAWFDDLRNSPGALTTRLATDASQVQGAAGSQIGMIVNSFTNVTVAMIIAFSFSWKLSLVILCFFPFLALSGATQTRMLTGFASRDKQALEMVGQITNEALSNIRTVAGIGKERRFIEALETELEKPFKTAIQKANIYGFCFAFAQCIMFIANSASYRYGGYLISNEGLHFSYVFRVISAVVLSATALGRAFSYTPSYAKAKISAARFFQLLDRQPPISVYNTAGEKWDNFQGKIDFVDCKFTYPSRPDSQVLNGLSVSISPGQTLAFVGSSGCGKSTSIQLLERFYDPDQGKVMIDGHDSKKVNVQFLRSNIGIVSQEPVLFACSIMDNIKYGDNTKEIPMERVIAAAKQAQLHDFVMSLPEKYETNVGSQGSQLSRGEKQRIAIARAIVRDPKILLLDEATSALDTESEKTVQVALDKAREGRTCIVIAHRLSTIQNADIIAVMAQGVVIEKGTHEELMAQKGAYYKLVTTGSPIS
# Sequence of UniProt P46663 (whole entry, looked up): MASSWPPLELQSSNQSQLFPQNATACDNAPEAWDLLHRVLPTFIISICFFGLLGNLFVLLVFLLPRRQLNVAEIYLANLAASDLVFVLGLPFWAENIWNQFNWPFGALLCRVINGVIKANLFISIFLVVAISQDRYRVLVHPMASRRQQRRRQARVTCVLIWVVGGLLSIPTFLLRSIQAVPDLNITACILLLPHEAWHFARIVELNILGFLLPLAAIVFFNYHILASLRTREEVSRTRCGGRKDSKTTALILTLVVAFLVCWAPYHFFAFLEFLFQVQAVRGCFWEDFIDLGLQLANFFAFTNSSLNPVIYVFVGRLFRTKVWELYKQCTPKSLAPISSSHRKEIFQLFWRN
# Sequence of UniProt O15075 (whole entry, looked up): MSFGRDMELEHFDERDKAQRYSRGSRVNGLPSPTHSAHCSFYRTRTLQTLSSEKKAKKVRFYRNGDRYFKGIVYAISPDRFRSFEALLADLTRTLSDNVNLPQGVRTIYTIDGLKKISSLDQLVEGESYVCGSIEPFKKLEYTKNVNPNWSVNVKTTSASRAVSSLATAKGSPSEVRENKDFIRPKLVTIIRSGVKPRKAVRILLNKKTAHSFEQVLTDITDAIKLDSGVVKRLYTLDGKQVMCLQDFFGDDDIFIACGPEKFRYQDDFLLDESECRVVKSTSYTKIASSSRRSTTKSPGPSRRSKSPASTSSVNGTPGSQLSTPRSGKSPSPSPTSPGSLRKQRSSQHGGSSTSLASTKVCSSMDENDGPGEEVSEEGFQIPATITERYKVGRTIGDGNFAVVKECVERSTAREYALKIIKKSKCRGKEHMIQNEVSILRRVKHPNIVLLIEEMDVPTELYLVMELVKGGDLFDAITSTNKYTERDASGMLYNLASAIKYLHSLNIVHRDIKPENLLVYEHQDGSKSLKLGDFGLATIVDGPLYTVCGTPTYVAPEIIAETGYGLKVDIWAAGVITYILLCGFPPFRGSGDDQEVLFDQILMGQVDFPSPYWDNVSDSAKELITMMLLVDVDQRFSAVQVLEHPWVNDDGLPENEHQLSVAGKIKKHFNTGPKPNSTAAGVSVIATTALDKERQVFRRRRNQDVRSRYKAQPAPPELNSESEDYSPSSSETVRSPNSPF
# Sequence of UniProt P49840 (whole entry, looked up): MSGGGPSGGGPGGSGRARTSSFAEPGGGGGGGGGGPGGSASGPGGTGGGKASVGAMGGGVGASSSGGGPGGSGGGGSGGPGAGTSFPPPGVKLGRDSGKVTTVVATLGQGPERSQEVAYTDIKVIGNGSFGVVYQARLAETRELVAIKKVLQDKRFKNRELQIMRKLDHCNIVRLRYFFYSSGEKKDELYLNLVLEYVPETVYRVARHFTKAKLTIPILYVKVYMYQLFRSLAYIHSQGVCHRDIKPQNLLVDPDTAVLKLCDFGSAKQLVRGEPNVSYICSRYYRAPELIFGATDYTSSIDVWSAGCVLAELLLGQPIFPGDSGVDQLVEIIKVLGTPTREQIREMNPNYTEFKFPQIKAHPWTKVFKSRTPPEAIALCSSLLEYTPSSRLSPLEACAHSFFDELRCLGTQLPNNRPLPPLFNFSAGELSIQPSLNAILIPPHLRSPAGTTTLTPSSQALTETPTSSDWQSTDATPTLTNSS
Compound,tested on,assay,test system,setting,how to read,measurement,value
CCN(CC)CCOc1ccc(-c2nnn(Cc3ccc(OC)cc3)c2N)cc1,"CHRNA7 (Homo sapiens, UniProt P36544)",radioligand binding,HEK293,"10 µM, safety profiling",,inhibition,-8.19%
O=C1NC(=O)c2c1c1cc(F)c[n+]3c1c1c2c2cc(O)ccc2[n]1[Ru-4]312([N]=C=S)[S+]3CC[S+]1CC[S+]2CC3 (stereo not shown),CDK5 with p35,enzyme activity,,"100 nM, human enzyme, with: 10 µM ATP",reference: untreated,remaining activity,58%
CCc1nnc(-c2c(OC)cc(-c3cnc4cc(-c5cnn(C)c5)ccn34)cc2OC)o1,"HRH2 (Homo sapiens, UniProt P25021)","antagonist radioligand, radioligand binding",,"10 µM, SafetyScreen44 H2",,inhibition,-7%
Cc1nc2cccc(OCC(C)(C)C(=O)NC(C)C)c2c(N)c1C(=O)[O-].[Na+],Salmonella typhimurium,,TA100,"0.80 mg per plate, without S9, plate incorporation",,revertant colonies per plate,145 ± 13
Cc1ccc2c(n1)c(-c1cccc(S(C)(=O)=O)c1)c(C)n2C/C(F)=C/CN,ACE,ligand displacement,,10 µM,,inhibition,3%
Cc1cc(-c2ccc3ccccc3c2)nnc1NCCN1CCN(C)CC1,"ABCB11 (Homo sapiens, UniProt O95342)",transport,,concentration not given,,inhibition,negative
CN(/N=C/c1ccccc1C(=O)O)c1nc(-c2ccccc2Cl)cs1,CDK5 with p35,"enzyme activity, inhibitor",,1 µM,,inhibition,-5.71%
COc1ccc(F)cc1S(=O)(=O)Nc1cnc2c(c1)C(=O)NCCO2,"BDKRB2 (Homo sapiens, UniProt P30411)","ligand displacement, radioligand",,10 µM,,inhibition,-3%
COc1ccccc1-c1n[nH]c2nc(N[C@H]3CC[C@H](NS(=O)(=O)CC(C)C)CC3)ncc12,,"bead binding, competition bead pull-down, item: LINJ.35.3390",Leishmania donovani extract,10 µM,reference: vehicle,relative abundance,0.76
O=C(CN1CN(c2ccccc2)C2(CCN(C(=O)c3cnc4[nH]ncc4c3)CC2)C1=O)NCC(F)(F)F,"DCLK1 (Homo sapiens, UniProt O15075)",inhibitor,,concentration not given,,inhibition,< 50%
CN[C@@H]1[C@H](O)[C@H](NC)[C@H]2O[C@]3(O)[C@H](O[C@@H]2[C@H]1O)O[C@H](C)C[C@H]3NC(=O)Cc1cc(Cl)ccn1,"BDKRB1 (Homo sapiens, UniProt P46663)","ligand displacement, radioligand",,10 µM,,inhibition,4%
CS(C)(=O)=Nc1ccc(-c2ccc(-c3nc4cc(O[C@@H]5CO[C@H]6[C@@H]5OC[C@H]6O)[nH]c4cc3F)cc2)cc1,"PLK2 (Homo sapiens, UniProt Q9NYY3)","enzyme activity, inhibitor",,10 µM,,inhibition,-11%
N[C@H](C(=O)N1CCCC1)C1CCN(c2nccc3c(-c4ncc(Cl)cc4Cl)cccc23)CC1,"PADI3 (Homo sapiens, UniProt Q9ULW8)","enzyme activity, inhibitor",,0.2458 µM,,inhibition,69%
COc1cc([N+](=O)[O-])ccc1-n1cc(CCS(=O)(=O)F)nn1,BCHE,Ellman,horse,20 µM,,inhibition,33.9 ± 2%
CC(C)CC(O)(CC(C)C)c1cn(C(=O)N2CCCC2)nn1,"Phospholipase DDHD1 (Ddhd1, Mus musculus, UniProt Q80YA3)","probe labelling, inhibitor, competitive ABPP-SILAC, item: Ddhd1",mouse T cells,"concentration not given, 4 h, protein level","reference: treated over DMSO cells, lower = stronger inhibition",median SILAC activity ratio,1.22
C[C@H](NCc1ccc(-c2ccc(C(F)(F)F)cc2)cc1)C(N)=O,ACE,enzyme activity,,"1 µM, with: 500 µM FAPGG",,inhibition,0%
CC(C)[C@H]1NC(=O)C[C@H]2/C=C/CCSSC[C@@H](NC1=O)C(=O)N[C@H](Cc1cccc3ccccc13)C(=O)NCC(=O)O2,"NEK9 (Homo sapiens, UniProt Q8TD19)","enzyme activity, inhibitor",,10 µM,,inhibition,0.428%
CN(C)[C@H]1C[C@@]23CC[C@@]4(O2)C(=CC[C@]2(C)[C@@H](c5ccc6ccncc6c5)CC[C@H]24)C=C3[C@@H](O)[C@@H]1O,"MAP3K1 (Homo sapiens, UniProt Q13233)","ATP probe labelling, inhibitor, KiNativ profiling",,0.1 µM,,inhibition,14.7%
COc1ccccc1-n1cc(CCS(=O)(=O)F)nn1,BCHE,"enzyme activity, inhibitor, Ellman's method",horse serum BuChE,20 µM,,inhibition,21.2 ± 0.8%
O=C1NC2(CC2)COc2ncc(F)cc2[C@H]2COCCN2c2ccn3ncc1c3n2,,,"Sprague-Dawley rat, male, serum","oral, 10 mg/kg/day, end of treatment, 4-week subacute toxicity",,serum sodium,146 ± 1 mmol/L
CC[C@H](C)[C@@H]([C@@H](CC(=O)N1CCC[C@H]1[C@H](OC)[C@@H](C)C(=O)N[C@H](C)[C@@H](O)c1ccccc1)OC)N(C)C(=O)[C@@H](NC(=O)[C@H](C(C)C)N(C)C(=O)OCc1ccc(NC(=O)[C@H](CCCNC(N)=O)NC(=O)[C@@H](NC(=O)CCCCCN2C(=O)CC(SC[C@H](NC(=O)[C@H](CC(=O)O)NC(=O)[C@H](Cc3ccc(O)cc3)NC(=O)[C@H](Cc3c[nH]c4ccccc34)NC(=O)[C@@H](N)CCCNC(=N)N)C(=O)O)C2=O)C(C)C)cc1)C(C)C (stereo partly shown),,,"C57BL/6 mouse, healthy, liver","intraperitoneal, 2.5 mg/kg, 24 h",,concentration,not detected
CC(C)(C)C(=O)OCOP(=O)(OCOC(=O)C(C)(C)C)C1CCCN(O)C1=O (stereo not shown),SK-OV-3,,,,,log GI50,-6.29 log M
NC1CCCC1,BCHE,"enzyme activity, inhibitor, Ellman",,20 µM,,inhibition,30.6%
CC(=O)NC[C@@H]1[C@@H](O)C[C@H]2[C@H](O)C[C@@H](CO)N12,Spodoptera litura β-N-acetylglucosaminidase,,crude enzyme,"0.856 µM, run 1, with: p-nitrophenyl GlcNAc",,inhibition,62.9%
O=C(O)c1ccccc1/C=N/Nc1nc(-c2ccccc2Cl)cs1,"GSK3A (Homo sapiens, UniProt P49840)","enzyme activity, inhibitor",,1 µM,,inhibition,-1.54%
O=C1c2ccccc2CCCN1CCCCN1CCN(c2cccc(Cl)c2Cl)CC1,"DRD4 (Homo sapiens, UniProt P21917)",radioligand binding,,"concentration not given, with: [3H]N-methylspiperone",,inhibition,101%
Nc1ccc(/C=C/C(=O)N2CCc3c(oc4c(-c5ccc(F)cc5)cc(-c5ccc(C(=O)N6CCC(F)(F)CC6)cn5)cc34)C2)cn1,"MAP3K4 (Homo sapiens, UniProt Q9Y6R4)","binding, competition with immobilised ligand",,1 µM,,remaining binding,100%
C/C(=N\OCCCN1CCCCC1)c1ccc(C(F)(F)F)cc1,"GABA-A receptor; alpha-1/beta-2/gamma-2 (Homo sapiens, UniProt P14867+P18507+P47870)","membrane potential, antagonist, FLIPR membrane potential",,10 µM,,inhibition,23.7%
Cc1cc(OCC(=O)NCCNC(=O)c2cccc(COc3ccccc3C(N)=O)c2)c2c3c(c(=O)oc2c1)CCC3,"PARP2 (Homo sapiens, UniProt Q9UGN5)","enzyme activity, inhibitor",,0.5 µM,,inhibition,99%
CC[C@H](C)[C@H](NC(=O)[C@H](CO)NC(=O)[C@H](Cc1ccc(O)cc1)NC(=O)[C@H](Cc1ccc(O)cc1)NC(=O)[C@H](CC(N)=O)NC(=O)CNC(=O)[C@H](CO)NC(=O)[C@H](Cc1ccc(O)cc1)NC(=O)[C@H](CO)NC(=O)[C@H](CO)NC(=O)[C@H](CC(N)=O)NC(=O)COCCOCCNC(=O)CN1CCN(CC(=O)O)CCN(CC(=O)O)CCN(CC(=O)O)CC1)C(=O)N[C@@H](CC(C)C)C(N)=O [copper-64 labelled],,dynamic PET,"KPC mouse Ptf1a-CreER tdTomato, metastases","intravenous, 4.6 MBq/mouse, 0.6 min, 84 d after tamoxifen",,tissue uptake,10.1 %ID/mL
COc1ccccc1-c1n[nH]c2nc(NC3CCN(C(=O)Cc4ccc(F)cc4F)CC3)ncc12,,"bead binding, competition bead pull-down, item: LMJF.21.1552",Leishmania donovani extract,10 µM,reference: vehicle,relative abundance,0.98
